Experimental data collected from several papers.
Compare with care: the assays were run in different laboratories.
Organism: Escherichia coli

SMILES | assay | test system | setting | MIC
O=[N+]([O-])c1c(Br)c(Cl)c2cccnc2c1O | microbial growth, broth dilution | ATCC35218 | – | 4 µg/mL
CC1(C)[C@H](NC(=O)/C(=N\OCC(=O)N2CCC[C@@H]2C(=O)O)c2nsc(N)n2)C(=O)N1OS(=O)(=O)O | agar dilution | 16-1, ESBL-producing | – | 1 µg/mL
COc1c(NC(=O)c2ccc(NC(=O)c3ccc(NC(=O)[C@H](Cc4c[nH]nn4)NC(=O)c4ccc(NC(=O)/C(C)=C/c5ccc(O)cc5)cc4)cc3)cc2)ccc(C(=O)O)c1O | broth microdilution | DSM 1116 | – | 0.063 µg/mL
CC1(C)C(NC(=O)C(=NOC2(C(=O)O)CCC2)c2csc(N)n2)C(=O)N1OS(=O)(=O)O (stereo not shown) | agar dilution | 16-1, ESBL-producing | – | 0.06 µg/mL
CCCCCC[N+](C)(C)CCCCCCCCCCOc1cc(OCCCCCCCCCC[N+](C)(C)CCCCCC)cc(OCCCCCCCCCC[N+](C)(C)CCCCCC)c1.[Br-].[Br-].[Br-] | – | MC4100 | – | 4 µM
CC[C@H]1OC(=O)[C@H](C)[C@@H](OC(=O)Cc2ccccc2Cl)[C@H](C)[C@@H](O[C@@H]2O[C@H](C)C[C@H](N(C)C)[C@H]2O)[C@](C)(OC)C[C@@H](C)C(=O)[C@H](C)[C@@H](O)[C@]1(C)O | – | tolC | – | 2 µg/mL
CCCCCCCCCCn1cc[n+](CCCCCCCCCCOc2cc(OCCCCCCCCCC[n+]3ccn(CCCCCCCCCC)c3)cc(OCCCCCCCCCC[n+]3ccn(CCCCCCCCCC)c3)c2)c1.[Br-].[Br-].[Br-] | – | MC4100 | – | 32 µM
N=C(N)NCCC[C@@H]1NC(=O)[C@H](CCCNC(=N)N)NC(=O)[C@@H](C(c2ccccc2)c2ccccc2)NC(=O)[C@H](Cc2c[nH]c3ccccc23)NC(=O)[C@@H](C(c2ccccc2)c2ccccc2)NC(=O)[C@@H](CCCNC(=N)N)NC(=O)[C@@H](CCCNC(=N)N)NC1=O | – | ATCC 25922 | – | 16 µg/mL
CCCCCCCCCC[N+](C)(C)CCCCCCOc1cc(OCCCCCC[N+](C)(C)CCCCCCCCCC)cc(OCCCCCC[N+](C)(C)CCCCCCCCCC)c1.[Br-].[Br-].[Br-] | – | MC4100 | – | 2 µM
COc1nc(C(=O)Nc2ccc(C(=O)O)nc2OC)ccc1NC(=O)c1ccc(NC(=O)[C@H](Cc2c[nH]nn2)NC(=O)c2ccc(NC(=O)/C(C)=C/c3ccc(O)cc3)cc2)cc1 | broth microdilution | ciprofloxacin-sensitive | – | 4 µg/mL
CC(C)Oc1c(NC(=O)c2ccc(NC(=O)C(CC(N)=O)NC(=O)c3ccc(NC(=O)c4ccc(C#N)cc4)cc3)cc2)ccc(C(=O)Nc2ccc(C(=O)O)cc2)c1O (stereo not shown) | – | BW25113 WT | – | 0.025 µg/mL
C/C(=C\c1ccc(O)cc1)C(=O)Nc1ccc(C(=O)N[C@@H](Cc2c[nH]nn2)C(=O)Nc2ccc(C(=O)Nc3ccc(C(=O)Nc4ccc(C(=O)O)cc4)cc3)cc2)cc1 | broth microdilution | BW25113 | – | 0.063 µg/mL
CC[C@H](C)[C@@H]1NC(=O)[C@@H](CC(C)C)NC(=O)[C@H](CCN)NC(=O)[C@@H](NC(=O)[C@@H](CO)NC(=O)[C@@H](NC(=O)[C@H](CCN)NC(=O)c2ccc(-c3ccccc3)cc2)[C@@H](C)O)CCNC(=O)[C@H](CC(C)C)NC(=O)[C@H](CCN)NC(=O)[C@H](CCN)NC1=O | broth microdilution | ATCC 25922, colistin-susceptible | – | 4 to 8 µg/mL
CCCCCCCC(=O)Oc1c(C)c(OC)c2c(/C=C/c3ccccc3)c(CCCCCC)c(=O)oc2c1C | microbial growth, broth dilution | ATCC25922 | – | 5000 µg/mL
COc1nc(C(=O)O)ccc1NC(=O)c1ccc(NC(=O)c2ccc(NC(=O)[C@H](Cc3c[nH]nn3)NC(=O)c3ccc(NC(=O)/C(C)=C/c4ccc(O)cc4)cc3)cc2)c(OC)c1O | broth microdilution | ciprofloxacin-resistant | – | 8 µg/mL
CC[C@H]1OC(=O)[C@H](C)[C@@H](OC(=O)Cc2ccc3c(c2)OCO3)[C@H](C)[C@@H](O[C@@H]2O[C@H](C)C[C@H](N(C)C)[C@H]2O)[C@](C)(OC)C[C@@H](C)C(=O)[C@H](C)[C@@H](O)[C@]1(C)O | microbial growth | ATCC25922 | – | > 32 µg/mL
CN[C@H](CC(C)C)C(=O)N[C@H]1C(=O)N[C@@H](CC(N)=O)C(=O)N[C@H]2C(=O)N[C@H]3C(=O)N[C@H](C(=O)N[C@H](C(=O)NCc4cn(CC(=O)N[C@H](C(=O)N[C@@H](CCN)C(=O)N[C@H]5CCNC(=O)[C@H]([C@@H](C)O)NC(=O)[C@H](CCN)NC(=O)[C@H](CCN)NC(=O)[C@H](CC(C)C)NC(=O)[C@@H](CC(C)C)NC(=O)[C@H](CCN)NC5=O)[C@@H](C)O)nn4)c4cc(O)cc(O)c4-c4cc3ccc4O)[C@H](O)c3ccc(c(Cl)c3)Oc3cc2cc(c3O[C@@H]2O[C@H](CO)[C@@H](O)[C@H](O)[C@H]2O[C@H]2C[C@](C)(N)[C@H](O)[C@H](C)O2)Oc2ccc(cc2Cl)[C@H]1O | broth microdilution | ATCC 25922 | 18 to 20 h | 16 µg/mL

SMILES | assay | test system | setting | MIC
CC(C)(O/N=C(\C(=O)N[C@@H]1C(=O)N(OS(=O)(=O)O)C1(C)C)c1nsc(N)n1)C(=O)O | agar dilution | 16-1, ESBL-producing | – | 16 µg/mL
CC[C@H]1OC(=O)[C@H](C)C(=O)[C@H](C)[C@@H](O[C@@H]2O[C@H](C)C[C@H](N(C)C)[C@H]2O)[C@](C)(OC)C[C@@H](C)C(=O)[C@H](C)[C@H]2N(CCCCn3cnc(-c4cccnc4)c3)C(=O)O[C@]12C | – | lpxC | – | > 32 µg/mL
C[C@H](CS)C(=O)Nc1cccc(-c2nn[nH]n2)c1 | broth microdilution | DH5α pET28-lacUV5 control | 50 µM | > 64 µg/mL
Cc1c(CN(C)C(=O)/C=C/c2cnc3c(c2)CC(CN)C(=O)N3)oc2ccccc12 (stereo not shown) | microbial growth, broth dilution | MG1655 | clinical isolate | 8 µg/mL
COc1ccc2ccc(O)c(/C=N/[C@H]3CCCC[C@H]3/N=C/c3cccc(OC)c3O)c2c1 | microbial growth, broth dilution | – | clinical isolate | > 40 µM
CCC(CC)c1cc(CCN2CCCNCC2)nc(-c2ccccn2)n1 | microbial growth, broth dilution | ATCC25922 | – | > 64 µg/mL
COc1cc(C(=O)O)ccc1NC(=O)c1ccc(NC(=O)c2ccc(NC(=O)[C@H](Cc3c[nH]nn3)NC(=O)c3ccc(NC(=O)/C(C)=C/c4ccc(O)cc4)cc3)cc2)c(OC)c1 | broth microdilution | ciprofloxacin-sensitive | – | 0.5 µg/mL
Cn1nc(COC(=O)c2ccccc2)c(=O)c2c(=O)[nH]c(N)nc21 | microbial growth, broth dilution | BW25113 | 18 h | 50 µg/mL
C#CCNC(=O)[C@H]1NC(=O)[C@H]2NC(=O)[C@H](NC(=O)[C@@H]3NC(=O)[C@H](CC(N)=O)NC(=O)[C@H](NC(=O)[C@@H](CC(C)C)NC)[C@H](O)c4ccc(c(Cl)c4)Oc4cc3cc(c4O[C@@H]3O[C@H](CO)[C@@H](O)[C@H](O)[C@H]3O[C@H]3C[C@](C)(N)[C@H](O)[C@H](C)O3)Oc3ccc(cc3Cl)[C@H]2O)c2ccc(O)c(c2)-c2c(O)cc(O)cc21 | broth microdilution | ATCC 25922 | 18 to 20 h | 64 µg/mL
COc1ccc2ccc(O)c(/C=N/[C@H]3CCCC[C@H]3/N=C/c3cccc(F)c3O)c2c1 | microbial growth, broth dilution | – | clinical isolate | > 40 µM
COc1c(NC(=O)c2ccc(NC(=O)c3ccc(NC(=O)[C@H](Cc4c[nH]nn4)NC(=O)c4ccc(NC(=O)/C(C)=C/c5ccc(O)cc5)cc4)cc3)cc2O)ccc(C(=O)O)c1O | broth microdilution | BW25113 | – | 0.063 µg/mL
COc1c(C)c(OS(=O)(=O)c2ccccc2)c(C)c(O)c1C(=O)/C=C/c1ccccc1 | microbial growth, broth dilution | ATCC25922 | – | 5000 µg/mL
COc1cc(C(=O)Nc2ccc(C(=O)O)c(O)c2)ccc1NC(=O)c1ccc(NC(=O)[C@H](Cc2c[nH]nn2)NC(=O)c2ccc(NC(=O)/C(C)=C/c3ccc(O)cc3)cc2)cc1 | broth microdilution | DSM 1116 | – | 0.25 µg/mL
CC[C@H]1OC(=O)[C@H](C)[C@@H](OC(=O)Cc2ccc([N+](=O)[O-])cc2)[C@H](C)[C@@H](O[C@@H]2O[C@H](C)C[C@H](N(C)C)[C@H]2O)[C@](C)(OC)C[C@@H](C)C(=O)[C@H](C)[C@@H](O)[C@]1(C)O | microbial growth | ATCC25922 | – | > 32 µg/mL
CC[C@H](C)[C@H](NC(=O)[C@@H](CCCNC(=N)N)NC(=O)[C@H](CCCNC(=N)N)NC(=O)[C@@H]1CCCN1C(=O)[C@@H]1CCCN1C(=O)[C@H](CCCNC(=N)N)NC(=O)[C@@H]1CCCN1C(=O)[C@H](CCCNC(=N)N)NC(=O)[C@@H]1CCCN1C(=O)[C@H](CC(C)C)NC(=O)[C@H](Cc1ccc(O)cc1)NC(=O)[C@@H]1CCCN1C(=O)[C@@H]1CCCN1C(=O)[C@H](CCCNC(=N)N)NC(=O)[C@H](CC(=O)O)NC(=O)[C@@H](N)C(C)C)C(=O)N[C@@H](Cc1ccc(O)cc1)C(=O)N[C@@H](CC(N)=O)C(=O)N[C@H](CCCNC(=N)N)C(N)=O | broth microdilution | MC4100 | 18 h, 37 °C, 25% MHB2 | 8 µg/mL
COc1nc(C(=O)Nc2ccc(C(=O)O)c(O)c2OC)ccc1NC(=O)c1ccc(NC(=O)[C@H](Cc2c[nH]nn2)NC(=O)c2ccc(NC(=O)/C(C)=C/c3ccc(O)cc3)cc2)cc1 | broth microdilution | DSM 1116 | – | 0.063 µg/mL
COC(=O)CC(C)c1nn(C)c2nc(N)[nH]c(=O)c2c1=O (stereo not shown) | microbial growth, broth dilution | BW25113 | 18 h | > 100 µg/mL

A few entries again:
SMILES | assay | test system | setting | MIC
COc1ccc2ccc(O)c(/C=N/[C@H]3CCCC[C@H]3/N=C/c3cccc(F)c3O)c2c1 | microbial growth, broth dilution | – | clinical isolate | > 40 µM
COc1ccc2ccc(O)c(/C=N/[C@H]3CCCC[C@H]3/N=C/c3cccc(OC)c3O)c2c1 | microbial growth, broth dilution | – | clinical isolate | > 40 µM
CC[C@H](C)[C@@H]1NC(=O)[C@@H](CC(C)C)NC(=O)[C@H](CCN)NC(=O)[C@@H](NC(=O)[C@@H](CO)NC(=O)[C@@H](NC(=O)[C@H](CCN)NC(=O)c2ccc(-c3ccccc3)cc2)[C@@H](C)O)CCNC(=O)[C@H](CC(C)C)NC(=O)[C@H](CCN)NC(=O)[C@H](CCN)NC1=O | broth microdilution | ATCC 25922, colistin-susceptible | – | 4 to 8 µg/mL
C#CCNC(=O)[C@H]1NC(=O)[C@H]2NC(=O)[C@H](NC(=O)[C@@H]3NC(=O)[C@H](CC(N)=O)NC(=O)[C@H](NC(=O)[C@@H](CC(C)C)NC)[C@H](O)c4ccc(c(Cl)c4)Oc4cc3cc(c4O[C@@H]3O[C@H](CO)[C@@H](O)[C@H](O)[C@H]3O[C@H]3C[C@](C)(N)[C@H](O)[C@H](C)O3)Oc3ccc(cc3Cl)[C@H]2O)c2ccc(O)c(c2)-c2c(O)cc(O)cc21 | broth microdilution | ATCC 25922 | 18 to 20 h | 64 µg/mL
CN[C@H](CC(C)C)C(=O)N[C@H]1C(=O)N[C@@H](CC(N)=O)C(=O)N[C@H]2C(=O)N[C@H]3C(=O)N[C@H](C(=O)N[C@H](C(=O)NCc4cn(CC(=O)N[C@H](C(=O)N[C@@H](CCN)C(=O)N[C@H]5CCNC(=O)[C@H]([C@@H](C)O)NC(=O)[C@H](CCN)NC(=O)[C@H](CCN)NC(=O)[C@H](CC(C)C)NC(=O)[C@@H](CC(C)C)NC(=O)[C@H](CCN)NC5=O)[C@@H](C)O)nn4)c4cc(O)cc(O)c4-c4cc3ccc4O)[C@H](O)c3ccc(c(Cl)c3)Oc3cc2cc(c3O[C@@H]2O[C@H](CO)[C@@H](O)[C@H](O)[C@H]2O[C@H]2C[C@](C)(N)[C@H](O)[C@H](C)O2)Oc2ccc(cc2Cl)[C@H]1O | broth microdilution | ATCC 25922 | 18 to 20 h | 16 µg/mL
